Experimental data from different studies.
Each line is one published result; not all experiments were run side by side. ± gives the spread as reported.

The solubility of `CCOC(=O)N1C[C@@H](c2cnn(C)c2)N[C@@H](c2ccc(C(=O)OC)cc2)C1` is reported as > 750 µM (shake-flask, LC-HRMS; aqueous buffer; 16 h, pH 6.8).
`CCCCCCCCCCCCCCCC(=O)NCCOC(=O)C[C@@H](CN)CC(C)C` has a solubility of 3630 µg/mL (acetate buffer; 12 h, pH 4.5, 37 °C).
The solubility of `O=C(NC1(C(F)(F)F)CC1)c1ccccc1` is reported as 395 µM (PBS; 2 h, pH 7.4, 25 °C).
With `Cn1cc([C@H]2COC[C@@H](c3cc(Cl)cc(Cl)c3)N2)cn1` the solubility was > 750 µM (shake-flask, LC-HRMS; aqueous buffer; 16 h, pH 6.8).
With `c1cncc(-c2cccc(Nc3nccc(NC4CCCC4)n3)c2)c1` the solubility was 2 ± 0.2 µM (citrate phosphate-buffered saline; 18 h, pH 7.4, 1% DMSO).
The solubility of `CCOC(=O)N1C[C@@H](c2ccccc2O)N[C@@H](c2cc(Cl)cc(Cl)c2)C1` is reported as < 4 µM (shake-flask, LC-HRMS; aqueous buffer; 16 h, pH 6.8).
`C[C@@H](O)[C@H](NC(=O)c1ccc(C#Cc2ccccc2)cc1)C(=O)NCC1(C)NC(=O)NC1=O` (stereo partly shown) has a solubility of 230 µg/mL (aqueous buffer; pH 7.4).
The solubility of `COc1ccc(-c2cc(=O)c3c(OC)cc(OC)cc3o2)cc1` is reported as 11710 ± 74 ppm (HPLC; ethanol:butylene glycol 0:100).
`c1ccc(CSc2ncnc3nc[nH]c23)cc1` gave a solubility of 25 µM (UV absorbance; culture medium; stock diluted to 0.025 mM).
For `CCCSc1ccc2nc(NC(=O)OC)[nH]c2c1`, the solubility was 2.4 ± 0.2 µM (UV; DPBS; 18 h, room temperature).
The solubility of `CC1CCN(S(=O)(=O)c2ccc(Cl)c(C(=O)Nc3ccc(C(=O)O)cc3)c2)CC1` is reported as 563 µg/mL (aqueous buffer; pH 7.4).
`CCOC(=O)N1C[C@@H](c2cc(F)c(O)c(F)c2)N[C@@H](c2cccc(C(F)(F)F)c2)C1` has a solubility of < 4 µM (shake-flask, LC-HRMS; aqueous buffer; 16 h, pH 6.8).
`O=C(CSc1nnc(-c2ccncc2)o1)Nc1ccc(F)cc1` has a solubility of 53.2 µg/mL (aqueous buffer; pH 7.4).
`CCOC(=O)N1C[C@@H](C2CCCC2)N[C@@H](c2cccc(Br)c2)C1` gave a solubility of < 4 µM (shake-flask, LC-HRMS; aqueous buffer; 16 h, pH 6.8).
`CC(C)(C)c1sc2ncnc(Oc3c(F)cccc3OC(F)(F)F)c2c1-c1ccc(Cl)cc1` has a solubility of 50 µM (simulated intestinal fluid; pH 6.8).
`O=C(Cn1c(NCCO)nc2ccccc21)c1cccc([N+](=O)[O-])c1` has a solubility of 2.38 µg/mL (aqueous buffer; pH 7.4).
`O=C(Nc1cc(F)c(F)c(F)c1)c1ccc(F)c(S(=O)(=O)N2CCC(O)CC2)c1` gave a solubility of 39 µg/mL (phosphate buffer; pH 7.4).
`Cc1ccc([C@H]2N[C@@H](c3ccc(C(C)(C)C)cc3)CO[C@@H]2C)cc1` gave a solubility of < 4 µM (shake-flask, LC-HRMS; aqueous buffer; 16 h, pH 6.8).
`O=C(Nc1ccc(OC(F)(F)F)cc1)N[C@H]1CC[C@H](Oc2ccc(C(=O)O)cc2)CC1` gave a solubility of 0.349 ± 0.0087 µg/mL (deionised water; 10 min, pH 6.6, 37 °C, non-sink dissolution).
`CC(C)Nc1ccnc(Nc2cccc(-c3ncco3)c2)n1` has a solubility of 53.8 ± 3.2 µM (citrate phosphate-buffered saline; 18 h, pH 7.4, 1% DMSO).
`Cc1nc(C)c(-c2ccnc(Nc3ccc(F)cc3)n2)s1` has a solubility of < 1.61 µg/mL (aqueous buffer; pH 7.4).
With `Cc1cnc(Nc2ccnc3ccc(-c4ccc(S(=O)(=O)N5CCOCC5)cc4)cc23)s1` the solubility was 21 µM (thermodynamic; aqueous medium).
`Nc1nc2c(ncn2COCCO)c(=O)[nH]1` has a solubility of 486 µg/mL (shake-flask; methanol-ethanol mixture; 298.2 K, mass fraction 0.5).
For `CCOC(=O)N1C[C@@H](c2ccc(O)cc2)N[C@@H](C2CCOCC2)C1`, the solubility was > 750 µM (shake-flask, LC-HRMS; aqueous buffer; 16 h, pH 6.8).
The solubility of `O=S(=O)(NCc1ccccn1)c1cc(Cl)c(Cl)cc1Cl` is reported as < 3.77 µg/mL (aqueous buffer; pH 7.4).

Repeated from above:
With `Cn1cc([C@H]2COC[C@@H](c3cc(Cl)cc(Cl)c3)N2)cn1` the solubility was > 750 µM (shake-flask, LC-HRMS; aqueous buffer; 16 h, pH 6.8).
With `c1cncc(-c2cccc(Nc3nccc(NC4CCCC4)n3)c2)c1` the solubility was 2 ± 0.2 µM (citrate phosphate-buffered saline; 18 h, pH 7.4, 1% DMSO).
The solubility of `CCOC(=O)N1C[C@@H](c2ccccc2O)N[C@@H](c2cc(Cl)cc(Cl)c2)C1` is reported as < 4 µM (shake-flask, LC-HRMS; aqueous buffer; 16 h, pH 6.8).
